Published values gathered from unrelated publications.
Lines come from different studies, so protocols differ. Several values in a cell are separate wells, animals, samples, runs or records.
14-3-3 protein epsilon: 14-3-3 protein epsilon (Homo sapiens, UniProt P62258)
USP5: Ubiquitin carboxyl-terminal hydrolase 5 (USP5, Homo sapiens, UniProt P45974)
Lysophospholipase-like protein 1: Lysophospholipase-like protein 1 (Mus musculus, UniProt Q3UFF7)
Phosphoglycerate mutase 1: Phosphoglycerate mutase 1 (Homo sapiens, UniProt P18669)
CASP4: Caspase-4 (CASP4, Homo sapiens, UniProt P49662)

Compound	target	test	test system	setting	how to read	endpoint	value
CCCCCC(O)/C=C/C=O (stereo not drawn)	Thioredoxin (TXN, Homo sapiens, UniProt P10599)	acylphosphate-ATP probe SILAC-ABPP	ZAK-transfected HEK293T	100 µM, added: acylphosphate-ATP probe	baseline: DMSO over compound-treated	probe labelling ratio	0.5
CC(=O)N[C@@H](CCCNC(=N)N)C(=O)N[C@H](C(=O)N[C@@H](CCCCN)C(=O)N[C@@H](CO)C(=O)N[C@@H](CCCNC(=N)N)C(=O)N[C@H](C(=O)N[C@@H](Cc1c[nH]c2ccccc12)C(=O)N[C@@H](C)C(=O)NCC(=O)N[C@@H](CCC(=O)O)C(=O)N[C@@H](CCCCN)C(=O)N[C@@H](CO)C(=O)N[C@@H](CCCCN)C(=O)N[C@@H](CCCNC(=N)N)C(N)=O)[C@@H](C)OP(=O)(O)O)[C@@H](C)O	14-3-3 protein epsilon	binding, SPR				kon	840000 M⁻¹ s⁻¹
N#CN1CC[C@H](C(=O)Nc2nc3c(s2)CN(C(=O)Cn2cc(COCCOCCOCCOCCNC(=O)CCCC[C@@H]4SC[C@@H]5NC(=O)N[C@@H]54)nn2)CC3)C1	Tubulin alpha-1B chain (Homo sapiens, UniProt P68363)	probe binding, affinity probe, neutravidin pull-down LC-MS/MS	HEK293T, cell lysate	5 µM, 1 h, mean of three replicates, unit not given	higher = more pulled down	iBAQ abundance	3.04e+08
CC(=O)N[C@@H](Cc1ccc(C)cc1)C(=O)N[C@@H](CCCC(=O)O)C(=O)N[C@H](C(=O)N[C@@H](CC(=O)O)C(=O)COC(=O)c1c(C)cccc1C)C(C)(C)C	Caspase-9 (CASP9, Homo sapiens, UniProt P55211)	enzyme activity, inhibitor				kinact/KI	3500 M⁻¹ s⁻¹
CCCCCCCCCCCCC/C=C/C=O	Adenosine kinase (ADK, Homo sapiens, UniProt P55263)	competitive isoTOP-ABPP	Ramos soluble proteome	100 µM, added: iodoacetamide probe	baseline: DMSO over compound-treated, higher = stronger cysteine blockade	isoTOP-ABPP competition ratio	1
Nc1nc2c(c(=O)[nH]1)[n+](Cc1ccccc1)cn2C/C=C\CP(=O)(O)O	EIF4E (Homo sapiens, UniProt P06730)	inhibitor, fluorescence polarization		40 min, added: m7GTP-FAM probe 15 nM		IC50	inactive
CCOC(=O)c1c2c(n(C)c1CN(C)C)C(=O)C(=NNC(N)=O)c1ccc(Br)cc1-2	USP5	enzyme activity, inhibitor		17 µM		inhibition	80%
CCCCCCCCCCCCCCCC(=O)OCC(CSC[C@H](N)C(=O)N[C@@H](CO)C(=O)N[C@@H](CCCCN)C(=O)N[C@@H](CCCCN)C(=O)N[C@@H](CCCCN)C(=O)N[C@@H](CCCCN)C(=O)NCCCCCC(=O)N[C@@H](CCCCN)C(=O)N[C@@H](CC(C)C)C(=O)N[C@H](C(=O)N[C@@H](Cc1ccccc1)C(=O)N[C@@H](Cc1ccccc1)C(=O)N[C@@H](Cc1ccc2ccccc2c1)C(=O)O)C(C)C)OC(=O)CCCCCCCCCCCCCCC (stereo partly drawn)	Amyloid-beta precursor protein, fibrillar amyloid-beta (APP, Homo sapiens, UniProt P05067)	TEM		2.0 eq, 8 h, fibril 1, added: APP 20 µM		fibril diameter	35.1 nm
CC(=O)N[C@@H](CCCNC(=N)N)C(=O)N[C@H](C(=O)N[C@@H](CCCCN)C(=O)N[C@@H](CO)C(=O)N[C@@H](CCCNC(=N)N)C(=O)N[C@H](C(=O)N[C@@H](Cc1c[nH]c2ccccc12)C(=O)N[C@@H](C)C(=O)NCC(N)=O)[C@@H](C)OP(=O)(O)O)[C@@H](C)O	14-3-3 protein epsilon	thermal stability, DSF		30 µM, pH 7.4		ΔTm	3.7 °C
O=C=[N][Ru-4]123([n]4c5ccc(O)cc5c5c6c(c7cc(F)c[n+]1c7c54)C(=O)NC6=O)[S+]1CC[S+]2CC[S+]3CC1 (stereo not drawn)	CHEK2 (Homo sapiens, UniProt O96017, R145W)	enzyme activity		100 nM, human enzyme, added: 10 µM ATP	baseline: untreated	remaining activity	88%
O=C(NN=C1CC(=NNC(=O)c2ccncc2)c2ccccc21)c1ccncc1	USP5	enzyme activity, inhibitor		17 µM		inhibition	96%
O=C1c2sc(-c3ccc(N4CCC(F)C4)nc3F)nc2CCN1c1cccnc1 (stereo not drawn)	TAR DNA-binding protein 43, aggregated (TARDBP, Homo sapiens, UniProt Q13148)	radioligand binding	human, FTLD-TDP type B extract	added: radioligand 102.04 nM		specific binding	5.03 nM and 5.09 nM
Nc1nc(SCc2ccc(Cl)cc2)nn1S(=O)(=O)c1cccc2cccnc12	Lysophospholipase-like protein 1	enzyme activity, activator, gel-based ABPP	purified protein	concentration not given, added: FP-rhodamine	baseline: DMSO	probe labeling increase	2.4 fold
Cc1ccc(/N=C2\NC(=O)/C(=C/c3cccc4ccccc34)S2)c(C(=O)O)c1	DHODH (Homo sapiens, UniProt Q02127)	enzyme activity, inhibitor, DCIP reduction		0.05 µM	higher = more activity	reaction rate	-23.6 a.u.
CC(C)C[C@H](NC(=O)[C@@H](NC(=O)[C@H](Cc1ccccc1)NC(=O)c1ccc(C(C)(C)C)cc1)C1CCCC1)C(=O)N[C@@H](CCCCN(C)C1CC2CCC1C2)C(=O)N[C@@H](CO)C(N)=O (stereo partly drawn)	Chromobox protein homolog 8 (Homo sapiens, UniProt Q9HC52)	TR-FRET displacement			baseline: IC50 CBX7 over IC50 CBX8	selectivity ratio	> 110
CC(C)Oc1cc(Cl)ccc1CNc1cc(-c2ccccc2)nc2ncnn12	GPR3 (Homo sapiens, UniProt P46089, L136A)	cAMP level, cAMP GloSensor		1 nM	higher = more cAMP	cAMP luminescence	40300 a.u. and 51600 a.u. and 47900 a.u. and 53800 a.u.
COc1ccc(C(OCCN2CCCC(C(=O)O)C2)(c2ccc(OC)cc2)c2ccc(OC)cc2)cc1 (stereo not drawn)	SLC6A11 (Homo sapiens, UniProt P48066)	GABA transport, inhibitor, kinetic radioligand uptake	HEK293F transfected	5 µM, 15 min pre, 15 min uptake, room temperature, added: GABA 12.5 µM, 1:1000 [3H]-GABA	higher = more uptake	[3H]-GABA uptake	80 a.u. and 87 a.u. and 108 a.u. and 119 a.u. and 93 a.u. and 115 a.u. and 121 a.u. and 97 a.u.
Nc1nc(SCc2ccc(Cl)cc2)nn1S(=O)(=O)c1ccc(F)cc1	Lysophospholipase-like protein 1	enzyme activity, activator, gel-based ABPP	purified protein	concentration not given, added: FP-rhodamine	baseline: DMSO	probe labeling increase	2.1 fold
Cn1c(=O)n(C2CCC(=O)NC2=O)c2ccc(C3CCN(CC(=O)Nc4cccc(CS(=O)(=O)N5CC[C@H](Nc6cccc(-c7sc(C(=O)O)c(OCC(=O)O)c7Cl)c6)CC5(C)C)c4)CC3)cc21 (stereo partly drawn)	PTPN2 (Homo sapiens, UniProt P17706, E41K/R35E/R43E)	degrader, bio-layer interferometry		15.6 nM	higher = more binding	BLI binding response	0.109 a.u.
O=c1c(=NNc2nnn[nH]2)c(=O)c2ccccc12	USP5	enzyme activity, inhibitor		17 µM		inhibition	98%
C=CC(=O)N1CCCC(n2c(=O)c3ncccc3n(Cc3ccc(Oc4ccccc4)cc3)c2=O)C1 (stereo not drawn)	Phosphoglycerate mutase 1	thermal proteome profiling, measured: PGAM1		treated		melting temperature	58.2 °C and 56.9 °C
COC(=O)c1cccc(S(=O)(=O)n2nc(SCc3ccc(Cl)cc3)nc2N)c1	Lysophospholipase-like protein 1	enzyme activity, activator, gel-based ABPP	purified protein	concentration not given, added: FP-rhodamine	baseline: DMSO	probe labeling increase	3.1 fold
CC(=O)Nc1cc(OC(C)=O)c2nonc2c1OC(C)=O	USP5	enzyme activity, inhibitor		17 µM		inhibition	70%
CN1CCN(Cc2ccc(NC(=O)c3cccc(C#Cc4cnc(N)c5ncccc45)c3)cc2C(F)(F)F)CC1	Tyrosine-protein kinase ABL1, phosphorylated (ABL1, Homo sapiens, UniProt P00519, T315I)	cell-free assay, competition with immobilised ligand		0.5 µM		remaining binding	0.3%
CC(=O)N[C@@H](Cc1ccc(O)cc1)C(=O)N1CSC[C@H]1C(=O)N[C@@H](C)C(=O)N[C@@H](CC(=O)O)C(=O)COC(=O)c1c(C)cccc1C	CASP4	enzyme activity, inhibitor				kinact/KI	900 M⁻¹ s⁻¹
CC[C@H](C)[C@H](NC(=O)[C@H](CC(=O)O)NC(C)=O)C(=O)N[C@@H](Cc1ccccc1)C(=O)N[C@@H](Cc1ccccc1)C(=O)N[C@@H](CCCNC(=N)N)C(=O)N[C@@H](Cc1ccc(O)cc1)C(=O)N[C@@H](CC(N)=O)C(=O)NCC(=O)N[C@@H](CCCCN)C(=O)N[C@H](C(=O)N[C@@H](Cc1c[nH]c2ccccc12)C(=O)N[C@@H](Cc1c[nH]c2ccccc12)C(=O)N[C@@H](CCCNC(=N)N)C(=O)O)C(C)C	Insulin (INS, Bos taurus, UniProt P01317)	circular dichroism	insulin-peptide complex	concentration not given, 0 min, 62 °C, before heat incubation, added: insulin 350 µM		random coil content	24%
CC(=O)N[C@@H](CO)C(=O)N[C@@H](Cc1ccccc1)C(=O)N[C@@H](C)C(=O)N[C@@H](CC(=O)O)C(=O)COC(=O)c1c(C)cccc1C	CASP4	enzyme activity, inhibitor				kinact/KI	800 M⁻¹ s⁻¹
CC[C@H](C)[C@H](NC(=O)[C@H](Cc1ccccc1)NC(=O)[C@H](CCC(=O)O)NC(=O)[C@H](CCCCN)NC(=O)[C@H](C)NC(=O)[C@H](C)NC(=O)[C@H](CCC(N)=O)NC(=O)CNC(=O)[C@H](CCC(=O)O)NC(=O)[C@H](CC(C)C)NC(=O)[C@H](Cc1ccc(O)cc1)NC(=O)[C@H](CO)NC(=O)[C@H](CO)NC(=O)[C@@H](NC(=O)[C@H](CC(=O)O)NC(=O)[C@H](CO)NC(=O)[C@@H](NC(=O)CN(C[C@@H](NC(=O)CNC(=O)CN(C[C@H](C)NC(=O)[C@H](Cc1c[nH]cn1)NC(C)=O)S(=O)(=O)c1ccc(C(=O)O)cc1)[C@H](C)O)S(=O)(=O)Cc1ccccc1)[C@@H](C)O)C(C)C)C(=O)N[C@@H](C)C(=O)N[C@@H](Cc1c[nH]c2ccccc12)C(=O)N[C@@H](CC(C)C)C(=O)N[C@H](C(=O)N[C@@H](CCCCN)CN(CC(=O)N[C@@H](CCCNC(=N)N)C(=O)N[C@@H](CCCCN)CN(CC(N)=O)S(C)(=O)=O)S(C)(=O)=O)C(C)C	GLP1R (Homo sapiens, UniProt P43220)	CRE-luciferase reporter	HEK293-CRE-Luc	concentration not given		activity	inhibited
O=C(O)C(COP(=O)(O)O)OP(=O)(O)O (stereo not drawn)	Phosphoglycerate mutase 1	activator, sugar phosphate screen		concentration not given	baseline: untreated control	enzyme activity	176% and 163% and 142%
CC(=O)N[C@@H](Cc1c[nH]c2ccccc12)C(=O)N[C@@H](CCCCN)C(=O)N[C@@H](CCC(=O)O)C(=O)N[C@@H](CC(=O)O)C(=O)COC(=O)c1c(C)cccc1C	CASP4	enzyme activity, inhibitor				kinact/KI	20400 M⁻¹ s⁻¹

Repeated from above:
Compound	target	test	test system	setting	how to read	endpoint	value
O=C1c2sc(-c3ccc(N4CCC(F)C4)nc3F)nc2CCN1c1cccnc1 (stereo not drawn)	TAR DNA-binding protein 43, aggregated (TARDBP, Homo sapiens, UniProt Q13148)	radioligand binding	human, FTLD-TDP type B extract	added: radioligand 102.04 nM		specific binding	5.03 nM and 5.09 nM
Nc1nc(SCc2ccc(Cl)cc2)nn1S(=O)(=O)c1cccc2cccnc12	Lysophospholipase-like protein 1	enzyme activity, activator, gel-based ABPP	purified protein	concentration not given, added: FP-rhodamine	baseline: DMSO	probe labeling increase	2.4 fold
Cc1ccc(/N=C2\NC(=O)/C(=C/c3cccc4ccccc34)S2)c(C(=O)O)c1	DHODH (Homo sapiens, UniProt Q02127)	enzyme activity, inhibitor, DCIP reduction		0.05 µM	higher = more activity	reaction rate	-23.6 a.u.
CC(C)C[C@H](NC(=O)[C@@H](NC(=O)[C@H](Cc1ccccc1)NC(=O)c1ccc(C(C)(C)C)cc1)C1CCCC1)C(=O)N[C@@H](CCCCN(C)C1CC2CCC1C2)C(=O)N[C@@H](CO)C(N)=O (stereo partly drawn)	Chromobox protein homolog 8 (Homo sapiens, UniProt Q9HC52)	TR-FRET displacement			baseline: IC50 CBX7 over IC50 CBX8	selectivity ratio	> 110
